Results of several laboratories.
Every numbered part comes from another study and shows a few of its results, in no order.
Chain of UniProt Q8TDX7 (whole entry, looked up): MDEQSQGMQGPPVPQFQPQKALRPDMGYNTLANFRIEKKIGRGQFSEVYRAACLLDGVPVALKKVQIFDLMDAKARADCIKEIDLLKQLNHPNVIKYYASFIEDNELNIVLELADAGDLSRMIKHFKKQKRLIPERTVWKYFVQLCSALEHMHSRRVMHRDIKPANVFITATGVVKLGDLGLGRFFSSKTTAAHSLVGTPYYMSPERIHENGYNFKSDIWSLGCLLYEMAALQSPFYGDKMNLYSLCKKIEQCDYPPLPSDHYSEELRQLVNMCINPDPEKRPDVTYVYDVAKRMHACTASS
Chain of UniProt P07949 (whole entry, unmodified, looked up): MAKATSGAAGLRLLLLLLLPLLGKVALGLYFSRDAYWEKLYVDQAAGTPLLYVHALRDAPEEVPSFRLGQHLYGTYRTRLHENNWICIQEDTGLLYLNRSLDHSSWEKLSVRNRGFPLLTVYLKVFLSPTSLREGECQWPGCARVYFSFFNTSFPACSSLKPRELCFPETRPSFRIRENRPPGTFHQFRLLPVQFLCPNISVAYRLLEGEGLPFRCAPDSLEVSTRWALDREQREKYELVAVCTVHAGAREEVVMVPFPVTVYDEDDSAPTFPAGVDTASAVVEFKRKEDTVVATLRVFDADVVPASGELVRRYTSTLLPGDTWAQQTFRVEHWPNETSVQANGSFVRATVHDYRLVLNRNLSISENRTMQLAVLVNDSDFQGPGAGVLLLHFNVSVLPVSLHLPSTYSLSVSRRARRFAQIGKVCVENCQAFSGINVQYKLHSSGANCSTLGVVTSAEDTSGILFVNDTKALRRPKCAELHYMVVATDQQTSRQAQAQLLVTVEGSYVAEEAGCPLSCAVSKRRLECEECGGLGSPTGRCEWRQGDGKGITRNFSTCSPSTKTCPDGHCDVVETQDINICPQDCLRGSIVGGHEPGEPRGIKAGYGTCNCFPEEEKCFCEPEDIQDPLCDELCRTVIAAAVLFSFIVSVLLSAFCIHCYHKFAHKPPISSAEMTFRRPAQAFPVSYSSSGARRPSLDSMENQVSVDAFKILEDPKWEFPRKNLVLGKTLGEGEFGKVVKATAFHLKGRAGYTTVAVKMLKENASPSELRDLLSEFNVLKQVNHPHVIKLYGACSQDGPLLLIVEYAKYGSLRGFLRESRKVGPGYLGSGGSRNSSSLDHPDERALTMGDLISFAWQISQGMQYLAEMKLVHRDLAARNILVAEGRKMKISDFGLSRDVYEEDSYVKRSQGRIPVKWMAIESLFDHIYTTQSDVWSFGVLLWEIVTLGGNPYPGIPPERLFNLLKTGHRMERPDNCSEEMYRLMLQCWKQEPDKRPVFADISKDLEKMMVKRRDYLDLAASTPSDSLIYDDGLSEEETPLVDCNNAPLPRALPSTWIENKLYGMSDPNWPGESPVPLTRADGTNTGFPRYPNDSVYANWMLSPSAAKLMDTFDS
Chain of UniProt P42680 (whole entry, looked up): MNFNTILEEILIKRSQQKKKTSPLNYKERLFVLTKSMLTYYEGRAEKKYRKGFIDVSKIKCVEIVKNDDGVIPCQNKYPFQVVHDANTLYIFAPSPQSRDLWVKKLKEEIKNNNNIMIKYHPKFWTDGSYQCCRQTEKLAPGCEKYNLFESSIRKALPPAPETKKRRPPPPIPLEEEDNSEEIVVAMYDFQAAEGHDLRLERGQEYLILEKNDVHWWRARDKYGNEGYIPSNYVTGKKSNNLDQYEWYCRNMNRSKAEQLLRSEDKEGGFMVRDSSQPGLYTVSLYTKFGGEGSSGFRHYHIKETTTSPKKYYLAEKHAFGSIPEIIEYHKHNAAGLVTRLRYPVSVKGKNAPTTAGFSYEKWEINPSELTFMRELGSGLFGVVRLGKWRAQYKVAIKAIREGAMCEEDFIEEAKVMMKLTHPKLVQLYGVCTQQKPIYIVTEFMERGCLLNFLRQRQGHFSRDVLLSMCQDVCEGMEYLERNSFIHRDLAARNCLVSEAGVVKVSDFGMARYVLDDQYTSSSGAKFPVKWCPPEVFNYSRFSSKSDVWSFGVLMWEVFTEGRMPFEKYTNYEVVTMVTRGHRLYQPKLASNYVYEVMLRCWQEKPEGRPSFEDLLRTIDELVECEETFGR
Chain of UniProt Q13043 (whole entry, looked up): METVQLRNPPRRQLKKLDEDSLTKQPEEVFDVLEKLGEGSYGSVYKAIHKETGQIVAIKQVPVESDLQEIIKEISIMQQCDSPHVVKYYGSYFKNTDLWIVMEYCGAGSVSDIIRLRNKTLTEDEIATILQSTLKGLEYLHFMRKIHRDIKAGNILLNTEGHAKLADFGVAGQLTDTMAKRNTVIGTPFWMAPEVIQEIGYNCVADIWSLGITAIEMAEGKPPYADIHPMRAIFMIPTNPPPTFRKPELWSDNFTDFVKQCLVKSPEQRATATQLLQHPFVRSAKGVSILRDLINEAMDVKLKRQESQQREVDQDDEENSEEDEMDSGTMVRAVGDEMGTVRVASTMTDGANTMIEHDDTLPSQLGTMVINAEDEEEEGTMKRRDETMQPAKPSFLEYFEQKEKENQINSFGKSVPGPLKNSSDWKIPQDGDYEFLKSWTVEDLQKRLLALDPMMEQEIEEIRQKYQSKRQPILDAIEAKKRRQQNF
Chain of UniProt O43283 (whole entry, looked up): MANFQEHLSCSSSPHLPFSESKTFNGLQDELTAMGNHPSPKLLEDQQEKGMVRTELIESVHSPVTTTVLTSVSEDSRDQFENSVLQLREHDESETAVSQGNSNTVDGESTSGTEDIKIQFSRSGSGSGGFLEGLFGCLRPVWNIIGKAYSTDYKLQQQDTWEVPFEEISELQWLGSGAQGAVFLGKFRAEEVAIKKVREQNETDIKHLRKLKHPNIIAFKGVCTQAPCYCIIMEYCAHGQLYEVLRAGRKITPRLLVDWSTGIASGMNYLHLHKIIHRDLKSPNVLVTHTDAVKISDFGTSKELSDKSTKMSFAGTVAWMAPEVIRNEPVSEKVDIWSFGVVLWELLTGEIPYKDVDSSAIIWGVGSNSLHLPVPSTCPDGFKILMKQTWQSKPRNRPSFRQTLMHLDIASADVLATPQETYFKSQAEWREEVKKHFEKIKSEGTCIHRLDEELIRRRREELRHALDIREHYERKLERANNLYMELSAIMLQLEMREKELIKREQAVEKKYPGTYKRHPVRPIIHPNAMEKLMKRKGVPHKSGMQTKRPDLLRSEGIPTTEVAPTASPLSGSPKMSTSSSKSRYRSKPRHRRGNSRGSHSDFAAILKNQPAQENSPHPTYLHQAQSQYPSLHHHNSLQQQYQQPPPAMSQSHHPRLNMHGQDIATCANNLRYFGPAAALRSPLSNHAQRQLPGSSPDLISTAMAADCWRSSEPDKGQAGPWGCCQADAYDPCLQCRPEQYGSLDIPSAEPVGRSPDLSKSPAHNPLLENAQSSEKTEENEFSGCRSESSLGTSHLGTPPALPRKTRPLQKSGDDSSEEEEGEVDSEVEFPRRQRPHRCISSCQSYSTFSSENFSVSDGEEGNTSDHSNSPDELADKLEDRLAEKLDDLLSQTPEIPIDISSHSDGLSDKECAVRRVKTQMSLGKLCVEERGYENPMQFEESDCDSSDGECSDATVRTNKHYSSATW

Block 1
SMILES: CNc1ncc2cc(-c3cc(OC)cc(OC)c3Cl)c(=O)n(CCc3ccc(NC(=O)C(C#N)=CC(C)(C)N4CCOCC4)cc3)c2n1
Effect on: kinase activity
Measurement: inhibition
target = ROCK1 (Homo sapiens, UniProt Q13464); concentration = 1 µM; value = -5%
target = TEC (Homo sapiens, UniProt P42680); concentration = 0.1 µM; value = 0%
target = PRKCI (Homo sapiens, UniProt P41743); concentration = 0.1 µM; value = -4%
target = HIPK2 (Homo sapiens, UniProt Q9H2X6); concentration = 1 µM; value = 1%
target = HCK (Homo sapiens, UniProt P08631); concentration = 0.1 µM; value = 1%
target = SYK (Homo sapiens, UniProt P43405); concentration = 0.1 µM; value = 2%
target = SGK2 (Homo sapiens, UniProt Q9HBY8); concentration = 0.1 µM; value = -1%
target = NEK7 (Homo sapiens, UniProt Q8TDX7); concentration = 1 µM; value = -1%
target = DYRK3 (Homo sapiens, UniProt O43781); concentration = 1 µM; value = -3%
target = JAK1 (Homo sapiens, UniProt P23458); concentration = 1 µM; value = 0%
target = MAPK14 (Homo sapiens, UniProt Q16539); concentration = 0.1 µM; value = -2%
target = CHEK1 (Homo sapiens, UniProt O14757); concentration = 0.1 µM; value = 0%
target = RET (Homo sapiens, UniProt P07949); concentration = 1 µM; value = 45%
target = DYRK2 (Homo sapiens, UniProt Q92630); concentration = 0.1 µM; value = 3%
target = STK4 (Homo sapiens, UniProt Q13043); concentration = 0.1 µM; value = 9%
target = SRMS (Homo sapiens, UniProt Q9H3Y6); concentration = 0.1 µM; value = 0%
target = 5'-AMP-activated protein kinase catalytic subunit alpha-1, with beta1, gamma1 (PRKAA1, Homo sapiens, UniProt Q13131); concentration = 0.1 µM; value = -3%
target = PIM3 (Homo sapiens, UniProt Q86V86); concentration = 0.1 µM; value = 3%

Block 2
SMILES: O=C(Nc1ccccc1)Nc1cccc(Oc2ccc3nccn3n2)c1
Concentration: 1 µM
Measurement: remaining binding
target = FRK (Homo sapiens, UniProt P42685); effect on = binding; method = competition with immobilised ligand; value = 100%
target = Aurora kinase B (AURKB, Homo sapiens, UniProt Q96GD4); effect on = binding; method = competition with immobilised ligand; value = 92%
target = FGFR4 (Homo sapiens, UniProt P22455); effect on = binding; value = 100%
target = FLT3 (Homo sapiens, UniProt P36888, D835V); effect on = binding; value = 100%
target = IRAK3 (Homo sapiens, UniProt Q9Y616); effect on = binding; value = 99%
target = PTK2B (Homo sapiens, UniProt Q14289); effect on = binding; value = 40%
target = MAP2K4 (Homo sapiens, UniProt P45985); effect on = binding; value = 100%
target = MAP3K13 (Homo sapiens, UniProt O43283); method = cell-free binding; value = 100%
target = STK36 (Homo sapiens, UniProt Q9NRP7); effect on = binding; method = competition with immobilised ligand; value = 100%
target = NEK7 (Homo sapiens, UniProt Q8TDX7); effect on = binding; value = 100%
target = EGFR (Homo sapiens, UniProt P00533, T790M); effect on = binding; value = 100%
target = COQ8A (Homo sapiens, UniProt Q8NI60); effect on = binding; method = competition with immobilised ligand; value = 95%

Block 3
SMILES: C[C@@H]1CN(c2ccc(-c3cc(C(=O)NCCOCCOCCOCCOCCNC(=O)Cn4cc(-c5[nH]cc(C(=O)N[C@@H](CC(N)=O)c6ccc(F)c(Cl)c6)c5-c5ccc(Cl)cc5F)cn4)ccc3F)cc2NC(=O)c2c[nH]c(=O)cc2C(F)(F)F)C[C@H](C)N1C
Effect on: thermal unfolding
Method: differential scanning fluorimetry
Concentration: 5.5 µM
Direction: higher = more unfolded
Measurement: SYPRO Orange fluorescence
WDR5: WD repeat-containing protein 5 (WDR5, Homo sapiens, UniProt P61964)
DCAF1: DDB1- and CUL4-associated factor 1 (DCAF1, Homo sapiens, UniProt Q9Y4B6)
Chain of UniProt Q9Y4B6 (whole entry, looked up): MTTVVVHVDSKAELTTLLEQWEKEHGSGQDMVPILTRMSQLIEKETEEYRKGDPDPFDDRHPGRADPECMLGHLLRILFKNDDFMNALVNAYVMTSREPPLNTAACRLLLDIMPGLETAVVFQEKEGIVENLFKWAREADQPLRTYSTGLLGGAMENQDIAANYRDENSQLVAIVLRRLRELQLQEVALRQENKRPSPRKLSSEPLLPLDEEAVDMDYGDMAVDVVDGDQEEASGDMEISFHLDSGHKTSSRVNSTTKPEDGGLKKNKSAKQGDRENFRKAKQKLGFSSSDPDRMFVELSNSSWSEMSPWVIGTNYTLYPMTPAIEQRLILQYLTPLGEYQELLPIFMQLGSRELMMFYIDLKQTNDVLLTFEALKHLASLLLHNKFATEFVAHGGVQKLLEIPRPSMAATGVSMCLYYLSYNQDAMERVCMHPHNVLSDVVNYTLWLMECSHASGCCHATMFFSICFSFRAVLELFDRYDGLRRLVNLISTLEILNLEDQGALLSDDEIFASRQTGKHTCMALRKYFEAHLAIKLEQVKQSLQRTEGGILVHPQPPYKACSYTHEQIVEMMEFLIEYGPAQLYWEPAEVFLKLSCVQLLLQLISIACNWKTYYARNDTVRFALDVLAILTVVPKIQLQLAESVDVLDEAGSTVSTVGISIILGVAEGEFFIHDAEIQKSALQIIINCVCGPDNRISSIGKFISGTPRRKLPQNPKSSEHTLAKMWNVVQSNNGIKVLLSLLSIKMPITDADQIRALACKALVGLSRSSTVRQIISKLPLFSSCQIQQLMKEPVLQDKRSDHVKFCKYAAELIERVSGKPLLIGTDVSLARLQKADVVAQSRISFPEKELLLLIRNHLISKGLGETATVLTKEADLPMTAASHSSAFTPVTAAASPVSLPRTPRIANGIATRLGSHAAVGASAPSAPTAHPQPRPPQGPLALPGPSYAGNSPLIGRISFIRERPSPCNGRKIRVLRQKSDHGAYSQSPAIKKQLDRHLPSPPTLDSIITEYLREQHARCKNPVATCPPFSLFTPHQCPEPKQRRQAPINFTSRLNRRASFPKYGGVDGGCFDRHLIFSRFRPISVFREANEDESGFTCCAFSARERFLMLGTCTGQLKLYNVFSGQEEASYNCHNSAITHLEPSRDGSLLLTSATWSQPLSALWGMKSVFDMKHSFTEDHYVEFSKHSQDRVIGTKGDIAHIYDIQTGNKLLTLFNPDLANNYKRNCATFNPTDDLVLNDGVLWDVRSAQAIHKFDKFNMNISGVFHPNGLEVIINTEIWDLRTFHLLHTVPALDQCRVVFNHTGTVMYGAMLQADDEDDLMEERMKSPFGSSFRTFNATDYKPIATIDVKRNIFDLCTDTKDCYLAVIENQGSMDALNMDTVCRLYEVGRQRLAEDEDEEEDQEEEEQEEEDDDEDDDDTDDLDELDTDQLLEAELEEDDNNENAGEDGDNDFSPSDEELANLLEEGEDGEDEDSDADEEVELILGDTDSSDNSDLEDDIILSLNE
target = WDR5; temperature = 46.6 °C; value = 14300 a.u.
target = WDR5; temperature = 67.41 °C; value = 6990 a.u.
target = WDR5; temperature = 54.41 °C; value = 13900 a.u.
target = WDR5; temperature = 93.81 °C; value = 39300 a.u.
target = DCAF1; temperature = 62.21 °C; value = 48600 a.u.
target = WDR5; temperature = 47.6 °C; value = 14400 a.u.
target = WDR5; temperature = 26.4 °C; value = 14700 a.u.
target = DCAF1; temperature = 44.4 °C; value = 12000 a.u.
target = WDR5; temperature = 73.81 °C; value = 9290 a.u.
target = DCAF1; temperature = 64.81 °C; value = 55600 a.u.
target = WDR5; temperature = 43.8 °C; value = 14500 a.u.

Block 4
Structure (SMILES): CCC1(c2cccc(-c3cn(C)nc3C)c2)C2=C(Nc3n[nH]cc31)C(F)C(C)(C)CC2=O (single isomer, unassigned)
Concentration: 1 µM
Measurement: remaining binding
target = MAP3K10 (Homo sapiens, UniProt Q02779); effect on = binding; method = competition with immobilised ligand; value = 100%
target = CDK15 (Homo sapiens, UniProt Q96Q40); effect on = kinase binding; method = KINOMEscan; relative to = DMSO control; value = 100%
target = ALK (Homo sapiens, UniProt Q9UM73, L1196M); effect on = kinase binding; method = KINOMEscan; relative to = DMSO control; value = 58%
target = PIK3CA (Homo sapiens, UniProt P42336, Q546K); effect on = kinase binding; method = KINOMEscan; relative to = DMSO control; value = 48%
target = Ribosomal protein S6 kinase alpha-1, C-terminal kinase domain (RPS6KA1, Homo sapiens, UniProt Q15418); effect on = kinase binding; method = KINOMEscan; relative to = DMSO control; value = 97%
target = DAPK3 (Homo sapiens, UniProt O43293); effect on = kinase binding; method = KINOMEscan; relative to = DMSO control; value = 100%
target = RET (Homo sapiens, UniProt P07949, V804L); effect on = binding; method = competition with immobilised ligand; value = 100%
target = Ribosomal protein S6 kinase alpha-3, N-terminal kinase domain (RPS6KA3, Homo sapiens, UniProt P51812); effect on = kinase binding; method = KINOMEscan; relative to = DMSO control; value = 100%
target = Tyrosine-protein kinase ABL1, non-phosphorylated (ABL1, Homo sapiens, UniProt P00519, T315I); effect on = binding; method = competition with immobilised ligand; value = 95%
target = PLK2 (Homo sapiens, UniProt Q9NYY3); effect on = kinase binding; method = KINOMEscan; relative to = DMSO control; value = 77%
target = MAP3K1 (Homo sapiens, UniProt Q13233); effect on = kinase binding; method = KINOMEscan; relative to = DMSO control; value = 81%
target = Ribosomal protein S6 kinase alpha-6, N-terminal kinase domain (RPS6KA6, Homo sapiens, UniProt Q9UK32); effect on = binding; method = competition with immobilised ligand; value = 100%
target = MTOR (Homo sapiens, UniProt P42345); effect on = binding; method = competition with immobilised ligand; value = 57%

For quick reference, copied from above (block 1):
target = MAPK14 (Homo sapiens, UniProt Q16539); concentration = 0.1 µM; value = -2%
target = CHEK1 (Homo sapiens, UniProt O14757); concentration = 0.1 µM; value = 0%
target = RET (Homo sapiens, UniProt P07949); concentration = 1 µM; value = 45%
target = DYRK2 (Homo sapiens, UniProt Q92630); concentration = 0.1 µM; value = 3%
target = STK4 (Homo sapiens, UniProt Q13043); concentration = 0.1 µM; value = 9%
target = SRMS (Homo sapiens, UniProt Q9H3Y6); concentration = 0.1 µM; value = 0%
target = 5'-AMP-activated protein kinase catalytic subunit alpha-1, with beta1, gamma1 (PRKAA1, Homo sapiens, UniProt Q13131); concentration = 0.1 µM; value = -3%
target = PIM3 (Homo sapiens, UniProt Q86V86); concentration = 0.1 µM; value = 3%
